Assay results collected from several papers.
Lines come from different studies, so protocols differ. Values joined by “and” are separate records of one study, mostly repeats; a detail may differ. Numbers after ± are the reported error.
GLP1R: Glucagon-like peptide 1 receptor (GLP1R, Homo sapiens, UniProt P43220)
T1: riboswitch RNA yjdF aptamer U23A, P2a insertion (Bacillus subtilis); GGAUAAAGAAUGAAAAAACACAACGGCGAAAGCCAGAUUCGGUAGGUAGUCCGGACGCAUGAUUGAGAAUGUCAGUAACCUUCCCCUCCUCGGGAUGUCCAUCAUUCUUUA

Under “fold potency loss”, CC[C@H](C)[C@H](NC(=O)[C@H](Cc1ccccc1)NC(=O)[C@H](CCC(=O)O)NC(=O)[C@H](CCCNC(=N)N)NC(=O)[C@H](C)NC(=O)[C@H](C)NC(=O)[C@H](CCC(N)=O)NC(=O)[C@H](CCC(=O)O)NC(=O)[C@H](CCC(=O)O)NC(=O)[C@H](CC(C)C)NC(=O)[C@H](Cc1ccc(O)cc1)NC(=O)[C@H](CO)NC(=O)[C@H](CO)NC(=O)[C@@H](NC(=O)[C@H](CC(=O)O)NC(=O)[C@H](CO)NC(=O)[C@@H](NC(=O)[C@H](Cc1ccccc1)NC(=O)[C@@H](NC(=O)CNC(=O)[C@H](CCC(=O)O)NC(=O)[C@H](C)NC(=O)CCc1cnc[nH]1)[C@@H](C)O)[C@@H](C)O)C(C)C)C(=O)N[C@@H](C)C(=O)N[C@@H](Cc1c[nH]c2ccccc12)C(=O)N[C@@H](CC(C)C)C(=O)N[C@H](C(=O)N[C@@H](CCCNC(=N)N)C(=O)NCC(=O)N[C@@H](CCCNC(=N)N)C(=O)N[C@@H](CCCCNC(=O)COCCOCCNC(=O)COCCOCCNC(=O)CC[C@H](NC(=O)CCCCCCCCCCCCCCCCC(=O)O)C(=O)O)C(=O)NCC(=O)NCC(=O)N[C@@H](CO)C(=O)N[C@@H](CCCCNC(=O)[C@H](CCCCNc1c(NCCCCCN(O)C(=O)CCC(=O)NCCCCCN(O)C(=O)CCC(=O)NCCCCCN(O)C(C)=O)c(=O)c1=O)Nc1c(NCCCCCN(O)C(=O)CCC(=O)NCCCCCN(O)C(=O)CCC(=O)NCCCCCN(O)C(C)=O)c(=O)c1=O)C(=O)O)C(C)C is recorded as 1.5 (GLP1R; agonist, CRE luciferase reporter; BHK cells; Zr-loaded DFO conjugate, together with: 0% HSA; baseline: parent peptide).
Under “LDL lipid peroxidation”, NC/C(=C\F)COc1cccc(Cn2c(=S)[nH]c(=O)c3[nH]cnc32)c1 is recorded as 103% and 106% and 71.4% and 95.9% (Myeloperoxidase (MPO, Homo sapiens, UniProt P05164); inhibitor, cholesteryl ester hydroperoxide; 0.00069 µM; baseline: control).
For [H]/N=C(/N)NCC(=O)O, “normalised MST signal” read -0.00644 (Sodium- and chloride-dependent taurine transporter (SLC6A6, Homo sapiens, UniProt P31641, G62A); binding, microscale thermophoresis; 3.91 µM, room temperature, together with: 50 nM labelled protein; higher = more binding).
CC(=O)N[C@H]1[C@H]([C@H](O)[C@H](O)CO)O[C@@](OC[C@H]2O[C@@H](Oc3ccc([N+](=O)[O-])cc3)[C@H](O)[C@@H](O)[C@H]2O)(C(=O)O)C[C@@H]1O — result for “sialic acid release”: 22% (Sialidase-2 (Homo sapiens, UniProt Q9Y3R4); substrate; 0.3 mM, 30 min, pH 5.0, 37 °C).
The ΔS of COc1cc(Cl)c(C(=O)N[C@@H](CN[C@H]2CC[C@@H](N)CC2)Cc2ccc(C#N)cc2)cc1-c1ccc(CN[C@H](C)c2ccc(C)cc2)o1 is reported as 21.1 cal/(mol·K) (ATPase family AAA domain-containing protein 2, bromodomain (ATAD2, Homo sapiens, UniProt Q6PL18); ITC; 37 °C).
The cooperativity of CC(=O)N[C@H](C(=O)N1C[C@H](O)C[C@H]1C(=O)NCc1ccc(-c2scnc2C)cc1)C(C)(C)SCCCCCCNC(=O)C[C@@H]1N=C(c2ccc(Cl)cc2)c2c(sc(C)c2C)-n2c(C)nnc21 is reported as 1 (BRD4/VHL, BD1; with elongins B/C (Homo sapiens, UniProt O60885+P40337); ITC; 25 °C, PROTAC:Brd4^BD1; baseline: Kd binary over Kd ternary).
O=c1nc(SCc2cc(F)cc(C(F)(F)F)c2)nc(SCc2ccc3nc(Cl)ccc3c2)[nH]1: “ATP hydrolysis rate” 2.44 µM/min and 1.75 µM/min (DNA topoisomerase 2-alpha (TOP2A, Homo sapiens, UniProt P11388); ATPase activity; 31.25 µM, together with: ATP 1 mM).
The kcat of Nc1ncnc2c1ncn2[C@@H]1O[C@H](COP(=O)(O)OP(=O)(O)OP(=O)(O)O)[C@@H](O)[C@H]1O is reported as 0.0003 ± 0.0001 s⁻¹ (Creatine kinase U-type, mitochondrial (CKMT1A, Homo sapiens, UniProt P12532, E265Q); substrate, ADP-Glo luminescence; pH 8.5, forward reaction, E227Q mutant, together with: second substrate in excess).
The ΔG of Nc1ncnc2c1ncn2[C@@H]1O[C@H](COP(=O)(O)OP(=O)(O)O)[C@@H](O)[C@H]1O is reported as -6.16 kcal/mol (GUK1 (Homo sapiens, UniProt Q16774, S18A); binding, ITC).
Under “thermal stability ratio”, O=C(COP(=O)(O)O)[C@@H](O)[C@H](O)[C@H](O)COP(=O)(O)O is recorded as 0.68 and 0.457 and 0.375 (Cytoplasmic dynein 1 light intermediate chain 2 (Homo sapiens, UniProt O43237); thermal proteome profiling, measured: DYNC1LI2; HepG2 cell lysate; concentration not given, 57 over 37 °C; baseline: compound over control).
The selectivity ratio of O=C1NC(=O)/C(=C/c2ccc(OCCNc3nc4c(cnn4C4CCCC4)c(=O)[nH]3)c(F)c2)S1 is reported as 450 fold (3',5'-cyclic-AMP phosphodiesterase 4D (PDE4D, Homo sapiens, UniProt Q08499); baseline: PDE4D over PDE9).
The affinity ratio of Nc1ncc2c(n1)-c1c([nH]c3ccc(C#CC4CC4)cc13)CCCC2 is reported as over 100 fold (Phosphatidylinositol 5-phosphate 4-kinase type-2 gamma (PIP4K2C, Homo sapiens, UniProt Q8TBX8); binding, NanoBRET target engagement; intact cells; baseline: cell-free over intact-cell affinity).
The remaining activity of O=C(O)c1ccc(Nc2ncc3c(n2)-c2ccc(Cl)cc2C(c2c(F)cccc2F)=NC3)cc1 is reported as 113% (CK1γ3(h); kinase activity; 1 µM).
C[C@H](CCC(C)(C)O)[C@H]1CC[C@H]2[C@@H]3CC=C4C[C@@](C)(O)CC[C@]4(C)[C@H]3CC[C@]12C has a current response of 121 ± 5.1% (Glutamate NMDA receptor; GRIN1/GRIN2B (GRIN1/GRIN2B, Homo sapiens, UniProt Q05586+Q13224, T550A); positive allosteric modulator, two-electrode voltage clamp; Xenopus oocytes expressing GluN1-T550A; 10 µM, 0.02% cremophor, together with: 100 µM glutamate and glycine; baseline: without compound).
CC[C@H](C)[C@H](NC(=O)[C@H](Cc1ccccc1)NC(=O)[C@H](CCC(=O)O)NC(=O)[C@H](CCCNC(=N)N)NC(=O)[C@H](C)NC(=O)[C@H](C)NC(=O)[C@H](CCC(N)=O)NC(=O)[C@H](CCC(=O)O)NC(=O)[C@H](CCC(=O)O)NC(=O)[C@H](CC(C)C)NC(=O)[C@H](Cc1ccc(O)cc1)NC(=O)[C@H](CO)NC(=O)[C@H](CO)NC(=O)[C@@H](NC(=O)[C@H](CC(=O)O)NC(=O)[C@H](CO)NC(=O)[C@@H](NC(=O)[C@H](Cc1ccccc1)NC(=O)[C@@H](NC(=O)CNC(=O)[C@H](CCC(=O)O)NC(=O)[C@H](C)NC(=O)CCc1cnc[nH]1)[C@@H](C)O)[C@@H](C)O)C(C)C)C(=O)N[C@@H](C)C(=O)N[C@@H](Cc1c[nH]c2ccccc12)C(=O)N[C@@H](CC(C)C)C(=O)N[C@H](C(=O)N[C@@H](CCCNC(=N)N)C(=O)NCC(=O)N[C@@H](CCCNC(=N)N)C(=O)N[C@@H](CCCCNC(=O)COCCOCCNC(=O)COCCOCCNC(=O)CC[C@H](NC(=O)CCCCCCCCCCCCCCCCC(=O)O)C(=O)O)C(=O)NCC(=O)NCC(=O)N[C@@H](CO)C(=O)N[C@@H](CCCCNc1c(NCCCCCN(O)C(=O)CCC(=O)NCCCCCN(O)C(=O)CCC(=O)NCCCCCN(O)C(C)=O)c(=O)c1=O)C(=O)N[C@@H](CCCCNc1c(NCCCCCN(O)C(=O)CCC(=O)NCCCCCN(O)C(=O)CCC(=O)NCCCCCN(O)C(C)=O)c(=O)c1=O)C(=O)O)C(C)C — result for “fold potency loss”: 6.3 (GLP1R; agonist, CRE luciferase reporter; BHK cells; metal-free DFO conjugate, together with: 0% HSA; baseline: parent peptide).
CNc1ccc(-c2nc3ccc(O)cc3s2)cc1 has an inhibition of 34.7% and 28.9% (Amyloid-beta precursor protein, amyloid-beta (APP, Homo sapiens, UniProt P05067); binding, competition binding; amyloid-beta aggregates; 1.235 nM, together with: tritiated amyloid ligand).
CC1=C[C@H](O)CC(C)(C)[C@H]1/C=C/C(C)=C/C=C/C(C)=C/C=C/C=C(C)/C=C/C=C(C)/C=C/C1=C(C)C[C@@H](O)CC1(C)C gave a fluorescence decrease of 23.2% (Beta-lactoglobulin (LGB, Bos taurus, UniProt P02754); intrinsic fluorescence; 298 K; baseline: protein alone).
The Kd of Cc1cc2nc3[nH]c(=O)[nH]c(=O)c3nc2cc1C is reported as 2000 nM (T1, riboswitch RNA yjdF aptamer U23A, P2a insertion (Bacillus subtilis); fluorescence titration; together with: 380 nM lumichrome).
For O=C(COP(=O)(O)O)[C@@H](O)[C@H](O)[C@H](O)COP(=O)(O)O, “minimum concentration, maximal activation” read 1520 ± 359 nM (Pyruvate kinase PKM (PKM, Homo sapiens, UniProt P14618); pyruvate kinase activity, activator; RKO cell lysate; together with: AIM).
The Bmax of O=C(O)CC[C@H](NC(=O)N[C@@H](CCCCNC(=O)CCCCCCC(=O)NCCCC[C@@H](NC(=O)[C@H](CCC(=O)O)NC(=O)[C@H](CCC(=O)O)NC(=O)CCC(=O)NCCCN1CC[S][Tc]2(=[O])[S]CC[N]2CC1)C(=O)O)C(=O)O)C(=O)O (stereo partly shown) [technetium-99m labelled] is reported as 12 µmol/mg (Glutamate carboxypeptidase 2 (FOLH1, Homo sapiens, UniProt Q04609); saturation binding; LNCaP).
With CC(C)C[C@@H]1NC(=O)CNC(=O)[C@H](CC(C)C)NC(=O)[C@@H]2CCCN2C(=O)[C@H](CC(=O)O)NC(=O)[C@H](Cc2ccc(O)cc2)NC(=O)CNC(=O)[C@@H](Cc2ccc(O)cc2)NC(=O)CSC[C@@H](C(N)=O)NC(=O)[C@H](C)NC(=O)[C@H](Cc2ccccc2)NC(=O)[C@H](Cc2ccc(O)cc2)NC(=O)[C@H](CCCCN)NC1=O the ΔG was -11.1 ± 0.21 kcal/mol (Vacuolar protein sorting-associated protein 29 (VPS29, Homo sapiens, UniProt Q9UBQ0); binding, ITC; 25 °C, protein alone).
For CCCCC[S+]([O-])c1n[nH]c(N)n1 (stereo not shown), “log fold enrichment” read -0.0585 (Transcription intermediary factor 1-beta, PHD-bromodomain (TRIM28, Homo sapiens, UniProt Q13263); binding, affinity selection mass spectrometry; baseline: other proteins in batch).
Under “fold potency loss”, CC[C@H](C)[C@H](NC(=O)[C@H](Cc1ccccc1)NC(=O)[C@H](CCC(=O)O)NC(=O)[C@H](CCCNC(=N)N)NC(=O)[C@H](C)NC(=O)[C@H](C)NC(=O)[C@H](CCC(N)=O)NC(=O)[C@H](CCC(=O)O)NC(=O)[C@H](CCC(=O)O)NC(=O)[C@H](CC(C)C)NC(=O)[C@H](Cc1ccc(O)cc1)NC(=O)[C@H](CO)NC(=O)[C@H](CO)NC(=O)[C@@H](NC(=O)[C@H](CC(=O)O)NC(=O)[C@H](CO)NC(=O)[C@@H](NC(=O)[C@H](Cc1ccccc1)NC(=O)[C@@H](NC(=O)CNC(=O)[C@H](CCC(=O)O)NC(=O)[C@H](C)NC(=O)CCc1cnc[nH]1)[C@@H](C)O)[C@@H](C)O)C(C)C)C(=O)N[C@@H](C)C(=O)N[C@@H](Cc1c[nH]c2ccccc12)C(=O)N[C@@H](CC(C)C)C(=O)N[C@H](C(=O)N[C@@H](CCCNC(=N)N)C(=O)NCC(=O)N[C@@H](CCCNC(=N)N)C(=O)N[C@@H](CCCCNC(=O)COCCOCCNC(=O)COCCOCCNC(=O)CC[C@H](NC(=O)CCCCCCCCCCCCCCCCC(=O)O)C(=O)O)C(=O)NCC(=O)NCC(=O)N[C@@H](CO)C(=O)N[C@@H](CCSC)C(=O)N[C@H](C(=O)N[C@@H](CCCCNc1c(NCCCCCN(O)C(=O)CCC(=O)NCCCCCN(O)C(=O)CCC(=O)NCCCCCN(O)C(C)=O)c(=O)c1=O)C(=O)O)C(C)C)C(C)C is recorded as 1.5 (GLP1R; agonist, CRE luciferase reporter; BHK cells; metal-free DFO conjugate, together with: 0% HSA; baseline: parent peptide).
NCC[C@H](O)C(=O)N[C@@H]1C[C@H](N)[C@@H](O[C@H]2O[C@H](CN)[C@@H](O)[C@H](O)[C@H]2O)[C@H](O)[C@H]1O[C@H]1O[C@H](CO)[C@@H](O)[C@H](N)[C@H]1O — result for “Stern-Volmer quenching constant”: 3.48 10³ M⁻¹ (Albumin (ALB, Bos taurus, UniProt P02769); tryptophan fluorescence quenching; 10 to 60 µM, 310 K).
For C#Cc1cc(-c2cc(Nc3nc(N[C@@H](C)c4ccc(F)cn4)ncc3Cl)n[nH]2)ccc1C=O, the inhibition was 101% (High affinity nerve growth factor receptor (NTRK1, Homo sapiens, UniProt P04629, G667S); enzyme activity, inhibitor; 0.2 µM).
